Measured values gathered from unrelated publications.
Numbers after ± are the reported error. ≈ marks a conversion by molar mass, not a printed value.

| Molecule | target or system | assay | test system | conditions | how to read | endpoint | value |
| --- | --- | --- | --- | --- | --- | --- | --- |
| tannic acid | viral haemorrhagic septicaemia virus |  | zebrafish | oral, 50 µg/fish/day, 15 days, dosed 3 days before challenge |  | cumulative mortality | 52.3 ± 4.2% |
| N#Cc1ccc(-c2ccc(-c3ccco3)o2)cc1F | Salmonella enterica |  | TA1535 | 10 µM, 48 h, added: sodium azide co-exposure | reference: sodium azide alone | mutant frequency | 25% |
| CN(C)CCCN1c2ccccc2Sc2ccc(Cl)cc21 | coronavirus spike pseudovirus | luciferase reporter | ACE2-high cells | 20 µM, unit not given | reference: untreated | pseudovirus entry | 0.76 ± 0.11 |
| C/C=C/C=C/C(=O)N/N=C/c1ccccc1Cl | Staphylococcus aureus, Bacillus subtilis, Escherichia coli | bacterial growth |  | 24 h |  | MIC | 50.1 µM (≈ 12.5 µg/mL) |
| CN(Cc1cnc2nc(N)nc(N)c2n1)c1ccc(C(=O)N[C@@H](CCC(=O)O)C(=O)O)cc1 | Trypanosoma brucei brucei | Alamar blue | Lister 427 bloodstream form | concentration not given, 10% fetal calf serum |  | ED50 | 2.7 ± 0.1 µM |
| Oc1ccc(C2=NN3C(=NCN3/C=C/c3ccccc3)S2)cc1O | Aedes aegypti |  |  | third instar larvae |  | LC50 | 120 µg/mL (≈ 355 µM) |
| Cc1ccc(C(=O)N/N=C/c2ccccc2Cl)cc1 | Aspergillus niger | microbial growth, broth dilution |  | 7 days |  | MIC | 24.5 µM (≈ 6.69 µg/mL) |
| N#Cc1ccc(-c2ccc(-c3cccs3)o2)c(F)c1 | Salmonella enterica |  | TA1535 | 10 µM, 48 h, added: sodium azide co-exposure | reference: sodium azide alone | mutant frequency | 31% |
| SC1=NCN(/C=C/c2ccccc2)N1N=Cc1ccc(Br)cc1 | Aedes aegypti |  |  | third instar larvae |  | LC50 | 140 µg/mL (≈ 361 µM) |
| c1ccc(CN2CCN3CCCN(CC2)CCN(Cc2ccccc2)CC3)cc1 | Leishmania donovani | parasite growth, resazurin |  | 72 h, amastigote |  | IC90 | > 25 µM |
| Cc1cc(C(C#N)c2ccc(Cl)cc2)c(Cl)cc1NC(=O)c1cc(I)cc(I)c1O (centres unmarked) | dengue virus type 2 New Guinea C | viral yield |  | single-cycle yield reduction |  | IC90 | 0.8 ± 0.3 µM |
| CCCCCCCCCCCCCC(=O)N/N=C/c1ccccc1 | Staphylococcus aureus, Bacillus subtilis, Escherichia coli | bacterial growth |  | 24 h |  | MIC | 39.8 µM (≈ 13.2 µg/mL) |
| CN[C@@](C)(C[18F])C(=O)O |  |  | SCID mouse U87 xenograft, spleen | 60 min, post injection |  | tissue uptake | 12 ± 1.2 %ID/g |
| CO/C(=C/C(N)=O)[C@H](C)[C@H](/C=C/c1csc(-c2csc([C@@H](C)/C=C/C=C/C(C)C)n2)n1)OC | Wickerhamomyces anomalus | O2 uptake, inhibitor | mitochondria | added: succinate 15 mM |  | IC50 | 0.073 µM |
| CN1CCN2CCN(CC1)CCN(Cc1ccccc1)CC2 | Leishmania donovani | parasite growth | THP-1 macrophages | intracellular amastigotes |  | IC90 | > 20 µM |
| C[C@@H]1N[C@H](CCCCCCCCCCC2=C[C@@H](CCCCCCCCCC[C@@H]3CC[C@@H](O)[C@H](C)N3)[C@@H]3CCCN3C2)CC[C@H]1O | Leishmania donovani | parasite growth | THP-1 | intracellular, amastigote |  | IC50 | 1.08 µg/mL |
| O=c1cc(-c2ccc3c(c2)OCO3)[nH]c2ccccc12 | human rhinovirus 2 | cytopathic effect | HeLa | concentration not given, 72 h, non-cytotoxic concentrations |  | antiviral activity | inactive |
| C[C@@]1(O)[C@H](O)[C@@H](CO)O[C@H]1n1ccc(=O)[nH]c1=O | hepatitis C virus | viral replication, luciferase reporter | genotype 1b Con1 replicon | 72 h |  | EC90 | 55.3 µM |
| STFFRLFNRSFTQGRRRRSVQWCA | Streptococcus mutans | OD600 | peptide, UA159, 4 h single-species biofilm | 128 µg/ml, 5 min exposure, OD600 read over 5 h |  | biofilm growth | decreased |
| O=Cc1cn(Cc2ccc(F)cc2)c2ccc([N+](=O)[O-])cc12 | Trypanosoma equiperdum |  | trypomastigotes, IVM-t1 |  |  | IC50 | > 84 µM |
| CO/C=C(/C(=O)OC)c1ccccc1Oc1cc(Oc2ccccc2C#N)ncn1 | Zymoseptoria tritici | disease control, glasshouse foliar spray | Triticum aestivum | disease control 100% |  | lowest effective concentration | < 1.8 µM |
| N#Cc1ccc(-c2ccc(-c3cccs3)o2)cc1F | Salmonella enterica |  | TA1535 | 20 µM, 48 h, added: sodium azide co-exposure | reference: sodium azide alone | mutant frequency | 35% |
| Nc1nc(N)c2nc(-c3ccccc3)c(N)nc2n1 | human respiratory syncytial virus |  | BEAS-2B, A2-L19F-renilla | concentration not given |  | antiviral activity | inactive |
| Cl.N=C(N)NCCNS(=O)(=O)c1cccc2cnccc12 | Chlamydomonas reinhardtii | dynein-driven sliding | pf14, isolated axonemes | 15 µM, 15 min, added: 1 mM ATP |  | microtubule sliding velocity | increased |
| C=CC1=C(C)/C(=C/c2[nH]c(Cc3[nH]c(/C=C4\NC(=O)C(C)=C4C=C)c(C)c3CCC(=O)O)c(CCC(=O)O)c2C)NC1=O | hepatitis C virus | viral replication, RT-PCR | Huh5-15 NS replicon | 48 h |  | lowest effective concentration | 200 µM |

| Molecule | target or system | assay | test system | conditions | how to read | endpoint | value |
| --- | --- | --- | --- | --- | --- | --- | --- |
| N#Cc1c(-c2ccc3c(c2)OCO3)[nH]c2nc(N)[nH]c(=O)c12 | Trypanosoma brucei brucei | Alamar blue | Lister 427 bloodstream form | concentration not given, 10% fetal calf serum |  | ED50 | 123 ± 3.3 µM |
| c1ccc(CN2CCN3CCN(CC2)CCN(Cc2ccccc2)CC3)cc1 | Leishmania donovani | parasite growth, resazurin |  | 72 h, amastigote |  | IC90 | 22.3 µM |
| CCCCCCCCCCCC(=O)N/N=C/c1ccccc1 | Aspergillus niger | microbial growth, broth dilution |  | 7 days |  | MIC | 61.7 µM (≈ 18.6 µg/mL) |
| CN1CCN(CCCN2c3ccccc3Sc3ccc(C(F)(F)F)cc32)CC1 | coronavirus spike pseudovirus | luciferase reporter | ACE2-high cells | 20 µM, unit not given | reference: untreated | pseudovirus entry | 0.31 ± 0.06 |
| O=Cc1cn(Cc2ccccc2)c2ccc([N+](=O)[O-])cc12 | Leishmania major | parasite growth, resazurin | THP-1 | 24 h, intracellular, amastigote |  | IC50 | > 10 µM |
| O=C(O)C(Cl)Cl | Leishmania infantum |  | U-937 macrophages, infected | 273 µM, 48 h, highest non-cytotoxic concentration |  | decrease of intracellular amastigotes | 31.1% |
| O=Cc1cn(Cc2cccc(Cl)c2)c2ccc([N+](=O)[O-])cc12 | Leishmania major | parasite growth, resazurin | THP-1 | 72 h, intracellular, amastigote |  | IC50 | 14 µM |
| C[C@@H]1[C@H](O)[C@@H](C)/C=C/C=C/C=C/C=C/C=C/C=C/C=C/[C@H](O[C@@H]2O[C@H](C)[C@@H](O)[C@H](N)[C@@H]2O)C[C@@H]2O[C@](O)(C[C@@H](O)C[C@@H](O)[C@H](O)CC[C@@H](O)C[C@@H](O)CC(=O)O[C@H]1C)C[C@H](O)[C@H]2C(=O)O | Leishmania amazonensis |  | intracellular amastigotes | 72 h, washout |  | LD50 | 82 ± 7.1 nM |
| N=C(N)c1ccc(-c2ccc(-c3cccs3)o2)c(F)c1 | Salmonella enterica |  | TA1535 | 20 µM, 48 h, added: sodium azide co-exposure | reference: sodium azide alone | mutant frequency | 18% |
| CCCC[C@H]1C(=O)O[C@H](C)[C@H](NC(=O)c2cccc(NC=O)c2O)C(=O)O[C@@H](C)[C@@H]1OC(=O)CC(C)C | Wickerhamomyces anomalus | O2 uptake, inhibitor | mitochondria | added: glycerol 3-phosphate 20 mM |  | IC50 | 0.026 µM |
| O=C(/C=C/c1ccccc1)N/N=C/c1ccccc1 | Staphylococcus aureus, Bacillus subtilis, Escherichia coli | bacterial growth |  | 24 h |  | MIC | 50.1 µM (≈ 12.5 µg/mL) |
| C[C@H](Cn1cnc2c(N)ncnc21)OCP(=O)(O)O | hepatitis B virus | viral replication | HepG2.2.15 |  |  | EC90 | 7.7 ± 0.6 µM |
| CP(=O)(O)CCC(N)C(=O)O (centres unmarked) | Echinochloa crus-galli |  |  | 500 g/ha, 13 days, post-emergence spray | reference: untreated (0%), complete kill (100%) | herbicidal activity | 100% |
| COc1cc(OC)cc(C(=O)N/N=C/c2ccccc2Cl)c1 | Aspergillus niger | microbial growth, broth dilution |  | 7 days |  | MIC | 27.5 µM (≈ 8.78 µg/mL) |
| C[C@H](Cn1cnc2c(N)ncnc21)OCP(=O)(O)O | human alphaherpesvirus 2 | virus production, plaque reduction | human monocytes/macrophages | 20 µg/mL, 6 days |  | inhibition | 98% |
| Polymyxin B | Escherichia coli K1 |  | ICR mice | i.p., 10 mg/kg, 1 h before infection, up to 96 h |  | survival rate | 78% |
| COc1cc(OC)cc(C(=O)N/N=C/c2ccccc2)c1 | Staphylococcus aureus, Bacillus subtilis, Escherichia coli | bacterial growth |  | 24 h |  | MIC | 43.7 µM (≈ 12.4 µg/mL) |
| C=CC1=C(C)/C(=C/C2=NC(=C\c3[nH]c(/C=C4\NC(=O)C(C)=C4C=C)c(C)c3CCC(=O)O)/C(CCC(=O)O)=C2C)NC1=O | hepatitis C virus | viral replication, RT-PCR | Huh5-15 NS replicon | 48 h |  | lowest effective concentration | 20 µM |
| N#Cc1ccc(-c2ccc(-c3ccco3)o2)c(F)c1 | Salmonella enterica | sodium azide mutagenicity | TA1535 | 20 µM, 48 h, added: sodium azide 2 µg/plate co-exposure |  | inhibition | 95 ± 13.6% |
| O=C1C=C(N(Cc2ccc(Cl)nc2)CC(F)F)CO1 | Bemisia tabaci | leaf-dip bioassay | biotype B | 72 h, adults | reference: LC50 over susceptible strain | resistance ratio | 3 |
| Cc1ccc(Cn2cc(C=O)c3cc([N+](=O)[O-])ccc32)cc1 | Trypanosoma brucei rhodesiense |  | trypomastigotes, IL1501 |  |  | IC50 | > 85 µM |
| N#Cc1ccc(-c2ccc(-c3cccs3)s2)cc1F | Salmonella enterica | sodium azide mutagenicity | TA1535 | 20 µM, 48 h, added: sodium azide 2 µg/plate after pre-exposure |  | inhibition | 107% |
| CCOC(=O)C1=C(C)NC(C)=C(C(=O)OC)C1c1cccc([N+](=O)[O-])c1 (centres unmarked) | human respiratory syncytial virus |  | BEAS-2B, A2-L19F-renilla | concentration not given |  | antiviral activity | inactive |
| N=C(N)c1ccc(-c2ccc(-c3cccs3)o2)cc1F | Salmonella enterica |  | TA1535 | 10 µM, 48 h, added: sodium azide co-exposure | reference: sodium azide alone | mutant frequency | 29% |
| TFFRLFNRGRRRRSVQWCA | Streptococcus mutans | OD600 | peptide, UA159, 4 h single-species biofilm | 128 µg/ml, 5 min exposure, OD600 read over 5 h |  | biofilm growth | decreased |

Some of these lines once more:
| Molecule | target or system | assay | test system | conditions | how to read | endpoint | value |
| --- | --- | --- | --- | --- | --- | --- | --- |
| C[C@H](Cn1cnc2c(N)ncnc21)OCP(=O)(O)O | human alphaherpesvirus 2 | virus production, plaque reduction | human monocytes/macrophages | 20 µg/mL, 6 days |  | inhibition | 98% |
| N=C(N)c1ccc(-c2ccc(-c3cccs3)o2)c(F)c1 | Salmonella enterica |  | TA1535 | 20 µM, 48 h, added: sodium azide co-exposure | reference: sodium azide alone | mutant frequency | 18% |
| CN(Cc1cnc2nc(N)nc(N)c2n1)c1ccc(C(=O)N[C@@H](CCC(=O)O)C(=O)O)cc1 | Trypanosoma brucei brucei | Alamar blue | Lister 427 bloodstream form | concentration not given, 10% fetal calf serum |  | ED50 | 2.7 ± 0.1 µM |
| tannic acid | viral haemorrhagic septicaemia virus |  | zebrafish | oral, 50 µg/fish/day, 15 days, dosed 3 days before challenge |  | cumulative mortality | 52.3 ± 4.2% |
| c1ccc(CN2CCN3CCN(CC2)CCN(Cc2ccccc2)CC3)cc1 | Leishmania donovani | parasite growth, resazurin |  | 72 h, amastigote |  | IC90 | 22.3 µM |
